Measured values of several laboratories.
Numbered parts are unrelated; each lists some results of a single study.

Series 1
Target: RING finger protein unkempt homolog, zinc fingers 1-6, GST-SBP tag (UNK, Homo sapiens, UniProt Q9C0B0, residues 30-357)
UniProt Q9C0B0, sequence (30-357, looked up): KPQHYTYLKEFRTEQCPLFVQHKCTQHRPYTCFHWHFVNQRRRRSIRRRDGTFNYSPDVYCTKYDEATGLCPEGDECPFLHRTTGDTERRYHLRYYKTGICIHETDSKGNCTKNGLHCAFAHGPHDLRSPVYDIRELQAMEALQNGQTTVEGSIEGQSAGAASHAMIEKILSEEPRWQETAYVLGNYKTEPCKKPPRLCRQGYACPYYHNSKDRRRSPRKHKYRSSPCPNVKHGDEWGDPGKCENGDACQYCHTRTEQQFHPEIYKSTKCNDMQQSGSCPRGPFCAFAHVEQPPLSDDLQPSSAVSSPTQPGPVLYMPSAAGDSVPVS
Method: RNA Bind-n-Seq
Form: RNA
Sample: in vitro
Tested at: not given
Setting: RNA with constant flanks, human and mouse sites, ends assumed
Relative to: input RNA pool
Direction: higher = stronger binding
Endpoint: bound/input enrichment
Shared flanks, not repeated: GGGAGUUCUACAGUCCGACGAUC … CAACAGAGGAUUGAGCAUCA
GAAGACCACUUGGCAGUCAAGCACUUUUCUGUAGAAGGUCAGUUGGAAUUCAGGGCAUUGCUAUUUAUUCCUCGUCGGGCUCCCUUUGACCUUUUUGAGAACAAGAAGAAAAAGAACAAC: 0.103 ratio
AUUGACUUAAUGAUAAAAGAAUAUCCAGCUAAACACGCUGAAUAUUCGGUUAUCCUACAAGAAAAGGAACGUCAGAGAAUUACAGAUCAUUAUAAAGAGUAUUCUCAAAUGCAACAACAG: 0.109 ratio
CCAACCACAGCCCCUCACAAGGAGAGGUAUUUUGACAGAGUCGAUGAGAACAACCCAGAAUAUUUGCGGGAGAGGAACAUGGCACCAGACCUUCGUCAGGACUUCAAUAUGAUGGAGCAG: 0.386 ratio
AAUGAUAUCAAACCAGCCUUUGGCACAAACCAAGAAGAUUAUGCAAGUUACAUUAUGAACGGUAUCAUCAAAUGGGGUGACCCAGUUACUCGAGUUCUAGAUGAUGGGGAGCUGCUGGUG: 0.22 ratio
ACGCCCAGCCGCCGAGCCCUGCCUGGCCCCUGCCGACGGCCCCAGCUGGACCUGGACAUCCUCAGCAGCCUCAUCGACUUGUGUGACAGCCCCGUGUCCCCUGCCGAGGCCAGCCGCACU: 0.136 ratio
AACCACAAUGACUGGAUUAAGCAGUAUGAAACGCUCGCAGAAAUGGUAGUACCAAGGUCAAGCAAUGUUCUUUCAGAGGACCAAGACAGUUAUCUUUGUAACGUCACCUUGUUUAGAAAA: 0.229 ratio
CAACAUUCUUCAGAUUGUGGAUGUGUGUCAUGACGUAGAAAAGGAUGAAAAACUUAUUCGUCUAAUGGAAGAGAUCAUGAGUGAGAAGGAGAAUAAAACCAUUGUUUUUGUGGAAACCAA: 0.234 ratio
CCACUUCCAGGACCUCACUCCCUCUUGCCAGGAAGAGCUAUCCCCAACAACAGAUUUCCCUUCAGACCCGGCAGGGGUAGGUCAGCUGACAGCCGGCUGCCAUUCCUGUGACCAAUUUGG: 0.11 ratio
UAUGCAGGAACACUGAAAGCAUAGGGUCUAAAUACCUUUGAUAGAUAAAAUGGUUGAUAUUUAAUAAAAUUUGUUGGUACUUAUUGUAUAUUUGGCUUCUUCUAAUAAAGAUUUCCAUAA: 1.14 ratio
GAGGAGGAGGGAAAGUCUAGCUCACCAAAGAAAAAGAUCAAGUUGAAGAAAAGUAAAAAUGUAGCAACUGAAGGAACCAGUACCCAGAAAGAAUUUGAAGUGAAAGAUCCUGAGCUGGAG: 0.608 ratio
UGUGUGACAUUUGCUGCAGAUGUGCCUGUGUACAUUGCUGGCCAGCAGGCUUUCUUCAACUAUUCUACAAGUAAAAGAAUCACUCGGCCAGGAAAUACCGACGAUCCAUCAGGGGGCAAC: 0.119 ratio

Series 2
Target: RNA binding protein fox-1 homolog 2, RRM domain, GST-SBP tag (RBFOX2, Homo sapiens, UniProt O43251-10, residues 100-194)
Method: RNA Bind-n-Seq
Form: RNA
Sample: in vitro
Tested at: 365 nM
Setting: natural RNA segment, single round, ends assumed
Relative to: no-protein control
Direction: higher = stronger binding
Endpoint: RBNS enrichment (R)
Shared flanks, not repeated: GGGAGUUCUACAGUCCGACGAUC … UGGAAUUCUCGGGUGCCAA
Residues (chain): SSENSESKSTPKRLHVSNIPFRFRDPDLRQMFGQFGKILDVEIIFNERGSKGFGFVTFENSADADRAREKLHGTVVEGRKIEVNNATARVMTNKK
UCUUCCAUCUGAAGUUUGACUUUUAUACCCAGCCAGAAGUUACAAAAUGAUGACCCACUCUGGGUAUAAGCUUGAUUUCCUUUGUUGAGACUUACCCUUCAUUGAAGAGA: 0.437
CCUGAGGGUUGAGUCAGUCUGUCUUGUUUGCUGUGCCACGCCUGAUGCCCAGCCCAGCAGCAUGCUUUGUACACUGAUAUAUUGGGUAAAUUUUGUUGAAUAAAUUAAGC: 1.22
CCCACUCACGUGCUGUGUGCAUGAGAAGGAGGCCGCUGUGUUCACACUACUGCACCGCACCGCACCCAGAAAGAACUUUCUCCCCAGCGGUGACGACUGCUCCAUGGGGA: 1.2
CAUAUCCCAGCCACCUGUGUACAGGGGCUCACUUUGUGUGCUCCUUGUUGCCUGAGAAGAAACCUUGGGGUGCCAGGGUGGGGGCAGAAGCAUGGGCUGGGUUCCGGUUC: 0.454
GUGUUUUUGUUAACUACCCUACAGAUAUUGAAUGCACCUUGAGAUAAUUUAGUGUUUUUAACUGAUACAUAAUUUAUCAAGCAGUACAUGAAAGUGUAAUAAUAAAAUGU: 0.538
UGAAUCAGUAGCUGUGAAAAUAACUGUCACCACAAAAUUACUGUCAUCGAACAUUGACGCAGGUGAUGCUACUCUGGAAGGACCUCAGGGCAGCCAGGUGUGCGUGUCUU: 0.474
AUUUCUGGUUGCACCGCGGCGCUUCCCAGCACCAACAUGUAACCGGCAUGUUUCCAGCAGAAGACAAAAAGACAAACAUGAAAGUCUAGAAAUAAAACUGGUAAAACCCC: 0.227
GAUUUUGACUGAGUGAGACUUCUAGCAUGAAAGUCCCACUUUGAUUAUUGCUUAUUUGAAAACAGUAUUCCCAACUUUUGUAAAGUUGUGUAUGUUUUUGCUUCCCAUGU: 23.3
CUUGCACACAGCCAUUCCCUAGCGCAAAGGUGCUGGUCACACUGCUUACUGAGGCGCUGAAGAGGCUCCCCCCACCCCCUUGAGGGUCAGUUUGUUAUUUCUCAAGUAUA: 0.705
AGAGGGCAGUCAAGGUCAAGAGCCUGUGGUCCAGCAUGCCUGGCCUGGGCGGGCUACCUCUGAGAACGGCUGAAAUGGUGCCCAGUCCAUCAGCAGUGAUGGAAUUUGCU: 0.433
UUUAACUUGGCGAGAUGUGUCUCUCAAUCCUGUGGCUUUGGUGAGAGAGUGUGCAGAGAGCAAUGAUAGCAAAUAAUGUACGAAUGUUUUUUGCAUUCAAAGGACAUCCA: 0.695
UGAAAACAAAGCAAGAUCAGUGCAGAGAAGCCACAUGACAUGUUGGGUGACAGAUUGGUCAUUUAUUUAAAUAAAGUUAAUACAGAUUAAAUUUGUUUCAAGAGCUAUUG: 0.371

Series 3
Target: Sal-like protein 4, full length isoform B (SALL4, Homo sapiens, UniProt Q9UJQ4-2, residues 1-616)
Method: universal PBM
Form: double-stranded DNA, one strand shown
Sample: in vitro
Tested at: not given
Setting: 8-mer, flanks averaged, mean of replicates
Direction: higher = stronger binding
Endpoint: E-score
AAAGAACA: 0.0962
CTCATCAA: 0.0807
AGATGATA: 0.242
ACATTTTG: 0.29
TTACCGAA: 0.0916
ATTTAGTC: 0.13
TCAATCCA: -0.0136
GAGTTCGA: 0.00516
GGGGGTAA: -0.136
CTACGGAC: -0.146
CGTCGTCC: -0.244
CATCATAA: 0.341
CCGCACGG: -0.283
CCACAAAA: 0.0648
ACCAGGTG: -0.283
GTTCCGAA: -0.112
AATCCGTA: 0.0526
ACTCTAAG: 0.0068
AGAAGAAC: -0.0295
ACTCAGGA: -0.0857
CACCCGAC: -0.257
CCCCCACA: -0.0541
CAAATAAA: 0.259
CGGCCTAC: -0.148
ACTTCAAA: 0.106

Series 4
Target: Interferon regulatory factor 7, full length, phosphomimetic (IRF7, Homo sapiens, UniProt Q92985, residues 1-503, S471D/S472D/S475D/S476D/S477D/S483D/S484D/S487D)
Method: protein-binding microarray
Form: double-stranded DNA, one strand shown
Sample: in vitro
Tested at: 2200 nM top
Setting: 60-bp whole probe
Added: salmon DNA 0.4 mg/ml
Relative to: random background probes
Direction: higher = stronger binding
Endpoint: fitted relative affinity
Shared flanks, not repeated: GCCTAGCAC … GTCTTGATTCGCTTGACGCTGCTG
Target sequence (chain): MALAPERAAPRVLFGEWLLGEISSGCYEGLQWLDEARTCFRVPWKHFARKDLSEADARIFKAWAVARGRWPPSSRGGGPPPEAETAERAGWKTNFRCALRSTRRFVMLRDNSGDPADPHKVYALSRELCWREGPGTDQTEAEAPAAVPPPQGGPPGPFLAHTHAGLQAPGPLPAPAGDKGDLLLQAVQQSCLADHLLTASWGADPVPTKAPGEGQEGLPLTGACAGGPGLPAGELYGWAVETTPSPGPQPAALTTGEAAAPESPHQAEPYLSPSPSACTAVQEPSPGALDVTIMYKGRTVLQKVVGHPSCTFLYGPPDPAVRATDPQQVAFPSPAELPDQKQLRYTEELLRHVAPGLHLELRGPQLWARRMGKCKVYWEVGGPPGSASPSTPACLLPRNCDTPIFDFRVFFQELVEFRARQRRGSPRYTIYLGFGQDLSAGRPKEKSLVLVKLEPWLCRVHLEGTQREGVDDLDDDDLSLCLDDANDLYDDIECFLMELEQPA
TCATCTCCATTTTTCTAACTGTGCTAG: 2.1 z-score
TTAGATTTCAGTTTCGATAAGTGCTAG: 4.57 z-score
TTAGATATCAGTTTCGATCAGTGCTAG: 3.38 z-score
TTAGGACTGGATACTGGGTTAGTGCTA: -0.485 z-score
GACGGTTTCGACATTGGGGACGTGCTA: 3.84 z-score
ATTTTTTAGCTTCTCAATTAGTGCTAG: 0.944 z-score
TCATGTTTGATAATTTTACTGTGCTAG: 0.974 z-score
GACGGTACCCTTTTCCTGACGTGCTAG: 1.45 z-score
GACGATAGCAGTTTCGAGACGTGCTAG: 2.84 z-score
GAAGGTATCGGACTGGGGACGTGCTAG: -0.409 z-score
GACGGTTTCGACTCTGGGGACGTGCTA: 5.19 z-score
TCATTTTTTTATTTATAACTGTGCTAG: 1.32 z-score
TCATATTTTAATCACATACTGTGCTAG: 0.914 z-score
TCACTTCTTGAACTCTTACTGTGCTAG: 1.82 z-score
GACGGAGTGGGTTTCGGGACGTGCTAG: 1.18 z-score
GACGAACTGAGTTTCGAAACGTGCTAG: 2.32 z-score
GACGGTATCGACTTACGGGACGTGCTA: 0.617 z-score
TCATCTCTTTCCTTCTTACTGTGCTAG: 3.37 z-score
GACGGTCTACTTATCCTGACGTGCTAG: 0.625 z-score

Series 5
Target: Protein C-ets-1 (ETS1, Homo sapiens, UniProt P14921, residues 1-441, full length assumed)
Method: protein-binding microarray
Form: double-stranded DNA, one strand shown
Sample: in vitro
Tested at: not given
Setting: k-mer, scored over probes, only values ≥0.25
Direction: higher = stronger binding
Endpoint: E-score
Construct (chain): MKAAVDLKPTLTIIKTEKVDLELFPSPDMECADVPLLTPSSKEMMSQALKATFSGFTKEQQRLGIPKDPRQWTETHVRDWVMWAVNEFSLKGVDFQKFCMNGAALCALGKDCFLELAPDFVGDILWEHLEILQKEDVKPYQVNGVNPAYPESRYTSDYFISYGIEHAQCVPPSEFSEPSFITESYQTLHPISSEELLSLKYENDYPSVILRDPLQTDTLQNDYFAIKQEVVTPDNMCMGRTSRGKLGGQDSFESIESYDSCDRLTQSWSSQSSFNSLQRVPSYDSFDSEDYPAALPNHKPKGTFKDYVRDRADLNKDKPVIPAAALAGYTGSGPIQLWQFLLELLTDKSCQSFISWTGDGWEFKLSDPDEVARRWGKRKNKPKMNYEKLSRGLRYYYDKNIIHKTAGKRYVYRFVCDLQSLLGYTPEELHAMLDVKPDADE
AGGGAGGG: 0.285
ATCCTGGA: 0.39
CGCGGAAA: 0.4
ATCCTATC: 0.277
AACCGGGG: 0.274
CATCCGCG: 0.381
AACAGGAA: 0.455
GCGGAAAA: 0.401
CGGAACTC: 0.41
CTTCCGCA: 0.466
CTATATCC: 0.373
AAGTCCGG: 0.335
CATCCGTC: 0.423
CCTTCCAG: 0.299
AGTACTTC: 0.32
ATTGCGGA: 0.312
GACCGGGA: 0.369
CAGGACGC: 0.336
CCTATCCG: 0.29
CCTGTCCC: 0.259
ACGGAAGG: 0.441
AAACGGGA: 0.346
CCAATCCG: 0.277
AGCTTCCG: 0.483
AAAGGAAC: 0.265

Series 6
Target: Histone acetyltransferase KAT6A, winged helix 2, GST fusion (KAT6A, Homo sapiens, UniProt Q92794, residues 85-181)
Method: protein binding microarray
Form: double-stranded DNA, one strand shown
Sample: in vitro
Tested at: not given
Setting: 8-mer, flanks averaged, mean of 2 arrays, mostly near background
Relative to: not given
Direction: higher = stronger binding
Endpoint: E-score
Construct (chain): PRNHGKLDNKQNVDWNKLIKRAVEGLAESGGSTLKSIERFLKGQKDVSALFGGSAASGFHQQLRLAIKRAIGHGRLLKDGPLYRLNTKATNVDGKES
ACTGCCGG: 0.172
AAGTAGTC: -0.0998
CTGCAGAC: 0.0807
AAGAGCAT: -0.0342
AACTGGCT: -0.102
ACCCATTG: 0.0533
AGTCGGTG: -0.0284
CATTTATA: 0.0332
CAGGCAAG: 0.0471
ATGTAAAG: -0.0548
AGCAGAGA: 0.0107
TCTCACCA: 0.0679
CTAGGCTC: 0.0003
CCTGGGAA: -0.0391
CAAGTGTG: 0.0268
TAGAGACA: 0.0198
GAATCTAC: -0.0636
GTGTCATA: -0.0402
CATAGGCA: -0.00967
GGCGAGAC: 0.0214
ACGTCTCC: -0.182
GCGCGAGA: 0.0714
AGCGTCCT: 0.0133
AGGCTTGA: 0.0304
GGGAAACA: 0.106
